Published values of several laboratories.
Lines come from different studies, so protocols differ. Values joined by “and” are separate records of one study, mostly repeats; a detail may differ. ± gives the spread as reported.
FFAR4: Free fatty acid receptor 4 (FFAR4, Homo sapiens, UniProt Q5NUL3)
USP51: Ubiquitin carboxyl-terminal hydrolase 51 (USP51, Homo sapiens, UniProt Q70EK9)
Trypanothione synthetase: Trypanothione synthetase (Trypanosoma brucei brucei, UniProt Q8IEX1)
Alpha-amylase: Alpha-amylase (Bos taurus, UniProt Q3MHH8)
CGAS catalytic domain; with DNA: Cyclic GMP-AMP synthase, catalytic domain; with DNA (CGAS, Homo sapiens, UniProt Q8N884)

| Structure (SMILES) | target | test | system | setting | how to read | inhibition |
| --- | --- | --- | --- | --- | --- | --- |
| CCCCCNc1cc(=O)[nH]c(=O)[nH]1 | FFAR4 | antagonist, β-arrestin recruitment | CHO cells | 10 µM |  | 17 ± 1% |
| CCN1/C(=C/C(C)=O)Sc2ccc(F)cc21 | CHRM2 (Homo sapiens, UniProt P08172) |  |  | 10 µM |  | 0% |
| CCCOC(=O)c1cc(O)c(O)c(O)c1 | USP51 | inhibitor |  | 1 µM, 1 h preincubation, with: Ub-AMC 250 nM |  | 75% |
| CC(C)C[C@H](NC(=O)[C@@H](NC(=O)[C@@H](N)Cc1ccccc1)C(C)C)C(=O)N[C@@H](CC(=O)O)C(=O)O | MAOA (Homo sapiens, UniProt P21397) | inhibitor, fluorometric |  | 410 µM |  | 3.14% |
| CCc1oc2ccccc2c1C(=O)c1cc(Br)c(O)c(Br)c1 | SLC22A12 (Homo sapiens, UniProt Q96S37, T217A) | uric acid uptake | HEK293T transfected with SLC22A12 T217A | 0.5 µM, 10 min, 37 °C, mean, with: [14C]urate 200 µM |  | 67.9% |
| Cc1cc(-c2ccnc3[nH]cc(F)c23)cc(F)c1[C@@]1(O)[C@H](C)CN(C2CCS(=O)(=O)CC2)C[C@@H]1C | ROCK1 (Homo sapiens, UniProt Q13464) | ATP probe binding, KiNativ | HEK293T cell lysate | 0.1 µM |  | -6.6% |
| CN(C)C(=O)CN1C(=O)Cc2c([nH]c3ccc(Br)cc23)-c2ccc(Cl)cc21 | Trypanothione synthetase | enzyme activity, inhibitor, BIOMOL Green |  | 30 µM |  | 24.6 ± 3.8% |
| CC1=NN(c2ccccn2)C(=O)C1=NNc1ccc(S(N)(=O)=O)cc1 | Alpha-amylase | enzyme activity, inhibitor, glucose oxidase |  | 200 µg/mL, with: dextrin |  | 13.1% |
| Cc1nn(-c2nc3c(F)cc(F)cc3s2)c(O)c1C(c1cccc(C(F)(F)F)c1)c1c(C)nn(-c2nc3c(F)cc(F)cc3s2)c1O | CGAS catalytic domain; with DNA | cGAS phase separation, inhibitor |  | 6.25 µM |  | 47.6% |
| O=C(O)c1cnccn1 | panD (Mycobacteroides abscessus, UniProt B1MGV7) | enzyme activity, 1H-NMR |  | 200 µM, with: L-Asp |  | 14% |
| CC[C@@]1(CC(=O)NC2CCCC2)CCCN2CCc3c([nH]c4ccccc34)[C@@H]21 | Neuropeptide S receptor, isoform B (NPSR1, Homo sapiens, UniProt Q6W5P4) | beta-arrestin recruitment, antagonist, PathHunter chemiluminescence |  | 20 µM, with: agonist at EC80 |  | -27% |
| CC(C)CCCCCNc1cc(=O)[nH]c(=O)[nH]1 | FFAR4 | antagonist, β-arrestin recruitment | CHO cells | 10 µM, with: 4 µM TUG-891 |  | 21 ± 5% |
| O=C1c2c(O)cc(O)cc2O[C@H](c2cc(O)c(O)c(O)c2)[C@H]1O | USP51 | inhibitor |  | 1 µM, 1 h preincubation, with: Ub-AMC 250 nM |  | 100% |
| COc1cc(C(=O)NS(=O)(=O)c2ccccc2C)ccc1Cc1cn(C)c2ccc(NC(=O)OC3CCCC3)cc12 | Volume-regulated anion channel subunit LRRC8C, part LRRC8A IL1 chimera (LRRC8C, Homo sapiens, UniProt Q8TDW0, I133F) | ion current, inhibitor, whole-cell patch clamp | HCT LRRC8-/- cells | 1 µM, +100 mV |  | 24.4% and 7.74% and 5.65% and -3.38% and 5.62% |
| NC/C(=C\F)COc1cccc(Cn2c(=S)[nH]c(=O)c3[nH]cnc32)c1 | rat thyroid hormone receptor | radioligand binding |  | 10 µM |  | < 50% |
| O=C(NO)c1ccc(CN2CCCCc3ccccc32)c(F)c1 | ADRB1 (Homo sapiens, UniProt P08588) | radioligand binding, radioligand displacement |  | 10 µM |  | 11.3% |
| COc1ccc(F)cc1C(=O)NCc1ccc(-c2nn([C@@H](C)C(F)(F)F)c(N)c2C(N)=O)cc1 | STK39 (Homo sapiens, UniProt Q9UEW8) | target engagement, competitive chemoproteomics | human PBMCs | 0.1 µM |  | 17.3% |
| O=c1cc(NCCCOc2ccccc2)[nH]c(=O)[nH]1 | FFAR4 | antagonist, β-arrestin recruitment | CHO cells | 10 µM, with: 4 µM TUG-891 |  | 16 ± 6% |
| CN(C(=O)n1cnc(-c2ccc[n+]([O-])c2)c1)C1CCCCC1 | TMEM97 (Homo sapiens, UniProt Q5BJF2) |  |  | 10 µM |  | 19.5% |
| Cc1nn(-c2nc3c(F)cc(F)cc3s2)c(O)c1C(c1ccccc1C(F)(F)F)c1c(C)nn(-c2nc3c(F)cc(F)cc3s2)c1O | CGAS catalytic domain; with DNA | cGAS phase separation, inhibitor |  | 25 µM |  | 93.1% |
| O=C(C[C@@H](C(F)F)n1ccc(F)n1)N1CCC(O)(Cn2cnc3c(cnn3-c3ccc(F)cc3)c2=O)CC1 | USP7 (Homo sapiens, UniProt Q93009, V517F) | enzyme activity, inhibitor |  | 0.005 µM |  | 9.71% and 9.05% |
| Cn1cc(-c2cnc3ccc(NC(=O)Nc4ccc(F)c(Br)c4)cc3n2)cn1 | MAP3K12 (Homo sapiens, UniProt Q12852) | kinase binding, KiNativ profiling, item: Lys2 peptide | PANC-1 lysate | 1.25 µM |  | 11% |
| CN1CCN(C(=O)CN2C(=O)Cc3c([nH]c4ccc(Br)cc34)-c3ccc(Cl)cc32)CC1 | Trypanothione synthetase | enzyme activity | Trypanosoma brucei | 30 µM |  | 31.6 ± 6% |
| S=C(NCCc1ccccc1)NC1CCC(NC(=S)NCCc2ccccc2)CC1 (stereo not drawn) | CXCR4 (Homo sapiens, UniProt P61073) | arrestin recruitment, antagonist, DiscoverX arrestin |  | 30 µM | reference: control | -0.91% and -1.3% |
| CC1=NCCNC(=O)C1=NNc1ccc(S(N)(=O)=O)cc1 | Alpha-amylase | enzyme activity, inhibitor, glucose oxidase |  | 100 µg/mL, with: dextrin |  | 13.1% |
| CC(C)CCNc1cc(=O)[nH]c(=O)[nH]1 | FFAR4 | antagonist, β-arrestin recruitment | CHO cells | 10 µM, with: 4 µM TUG-891 |  | 24 ± 8% |

| Structure (SMILES) | target | test | system | setting | how to read | inhibition |
| --- | --- | --- | --- | --- | --- | --- |
| CC1=NN(c2ccc(Cl)cc2)C(=O)C1=NNc1ccc(S(N)(=O)=O)cc1 | Alpha-amylase | enzyme activity, inhibitor, glucose oxidase |  | 10 µg/mL, with: dextrin |  | 3.8388 ± 0.000263% |
| O=c1cc(NCCCCc2ccccc2)[nH]c(=O)[nH]1 | FFAR4 | antagonist, β-arrestin recruitment | CHO cells | 10 µM, with: 4 µM TUG-891 |  | 21 ± 3% |
| O=C(Nc1cccc2c(=O)cc(-c3nnn[nH]3)oc12)c1ccc(OCCCCc2ccccc2)cc1 | Volume-regulated anion channel subunit LRRC8C, part LRRC8A IL1 chimera (LRRC8C, Homo sapiens, UniProt Q8TDW0, Y126F) | ion current, inhibitor, whole-cell patch clamp | HCT LRRC8-/- cells | 10 µM, -100 mV |  | 83.2% and 85.3% and 74.4% and 74.6% |
| [2H]c1cc(C)c(NC(=O)c2cnc(Nc3cc(N4CCCCC4)nc(C)n3)s2)c(Cl)c1 | MYLK2 (Homo sapiens, UniProt Q9H1R3) |  |  | 0.01 µM |  | < 30% |
| CC1=NOC(=O)C1=NNc1ccc(S(N)(=O)=O)cc1 | Alpha-amylase | enzyme activity, inhibitor, glucose oxidase |  | 100 µg/mL, with: dextrin |  | 14.8% |
| O=Nc1c(NCCCc2ccccc2)[nH]c(=O)[nH]c1=O | FFAR4 | antagonist, β-arrestin recruitment | CHO cells | 10 µM, with: 4 µM TUG-891 |  | 15 ± 12% |
| CC1=NN(c2ccc(F)cc2)C(=O)C1=NNc1ccc(S(N)(=O)=O)cc1 | Alpha-amylase | enzyme activity, inhibitor, glucose oxidase |  | 500 µg/mL, with: dextrin |  | 13.8% |
| CCN1CCN(Cc2ccc(NC(=O)c3ccc(C)c(/C=C/c4cnc5[nH]ccc5c4OC)c3)cc2C(F)(F)F)CC1 | MAST3 (Homo sapiens, UniProt O60307) |  | A-375 | 0.5 µM |  | -14.6% |
| CC1=NN(c2ccc(C)cc2)C(=O)C1=NNc1ccc(S(N)(=O)=O)cc1 | Alpha-amylase | enzyme activity, inhibitor, glucose oxidase |  | 10 µg/mL, with: dextrin |  | 24.376 ± 0.000929% |
| Cc1ccc(C(=O)Nc2ccc3ccccc3c2)o1 | CACNA1G (Homo sapiens, UniProt O43497) | ion current, inhibitor, whole-cell patch clamp |  | 10 µM |  | 2.9% and 14.7% and 17.4% and 14.8% and 8.9% |
| O=C(O)C1=CC(=C(c2ccc(O)c(C(=O)O)c2)c2ccc(O)c(C(=O)O)c2)C=CC1=O | P2X purinoceptor 3 (P2RX3, Homo sapiens, UniProt P56373) | ion current, antagonist, patch clamp | HEK293 | 400 nM, with: ATP4- 1 µM |  | 29.9 ± 4.1% |
| NCCCCNC(=O)CN1C(=O)Cc2c([nH]c3ccc(Br)cc23)-c2ccc(Cl)cc21 | Trypanothione synthetase | enzyme activity, inhibitor, BIOMOL Green |  | 30 µM |  | 10.8 ± 2.2% |
| [2H]c1cc(C)c(NC(=O)c2cnc(Nc3cc(N4CCC(O)CC4)nc(C)n3)s2)c(Cl)c1 | LCK (Homo sapiens, UniProt P06239) |  |  | 0.001 µM |  | > 50% |
| COc1ccc(S(=O)(=O)N(CC(=O)NO)CC(C)C)cc1 | MMP9 (Homo sapiens, UniProt P14780) | inhibitor |  | 0.1 µM |  | 22.1 ± 0.804% |
| CC[C@@H]1[C@H](F)C(=O)N[C@@H]1COc1nccc2cc(C(N)=O)c(OC)cc12 | MAP3K21 (Homo sapiens, UniProt Q5TCX8) | ATP-site probe binding, ActivX profiling, item: MLK4 | THP-1 cell lysate | 0.01 mM, Lys2 site |  | 7.8% |
| Cn1cncc1C1=CN(c2ncnc3[nH]cnc23)CCS1 | PRKCG (Homo sapiens, UniProt P05129) | enzyme activity |  | 0.05 µM |  | 30.5% |
| CN1CCN(c2cc(-c3ccncc3)c(-c3ccc4ccccc4c3)nn2)CC1 | GIPR (Homo sapiens, UniProt P48546) | antagonist, FLIPR |  | 10 µM |  | -8.5% |
| O=C(CO)[C@@H](O)[C@H](O)[C@H](O)CO | USP51 | inhibitor |  | 1 µM, 1 h preincubation, with: Ub-AMC 250 nM |  | 85% |
| CCN(CC)CCNC(=O)CN1C(=O)Cc2c([nH]c3ccc(Br)cc23)-c2ccc(Cl)cc21 | Trypanothione synthetase | enzyme activity, inhibitor, BIOMOL Green |  | 30 µM |  | 16 ± 5.6% |
| CCCCCCNc1cc(=O)[nH]c(=O)[nH]1 | FFAR4 | antagonist, β-arrestin recruitment | CHO cells | 10 µM, with: 4 µM TUG-891 |  | 11 ± 2% |
| COC(=O)CN1C(=O)Cc2c([nH]c3ccc(Br)cc23)-c2ccc(Cl)cc21 | Trypanothione synthetase | enzyme activity, inhibitor, BIOMOL Green |  | 30 µM |  | 17.1 ± 4% |
| CC1=NNC(=O)C1=NNc1ccc(S(N)(=O)=O)cc1 | Alpha-amylase | enzyme activity, inhibitor, glucose oxidase |  | 50 µg/mL, with: dextrin |  | 12.9% |
| COc1cc(C(=O)OCCCN2CCCN(CCCOC(=O)c3cc(OC)c(OC)c(OC)c3)CC2)cc(OC)c1OC | Equilibrative nucleoside transporter 2 (Homo sapiens, UniProt Q14542) | nucleoside transport, inhibitor | MDCKII cells expressing ENT2 | 25.1 µM, with: adenosine |  | 81.4% and 81.6% |
| CC1=NN(c2cccc(C)c2)C(=O)C1=NNc1ccc(S(N)(=O)=O)cc1 | Alpha-amylase | enzyme activity, inhibitor, glucose oxidase |  | 10 µg/mL, with: dextrin |  | 14.395 ± 0.000238% |
| COc1ccc(CCNc2cc(=O)[nH]c(=O)[nH]2)cc1 | FFAR4 | antagonist, β-arrestin recruitment | CHO cells | 10 µM |  | 14 ± 5% |
